Measurements collected from several papers.
Each line is one published result; not all experiments were run side by side. Numbers after ± are the reported error.
Method: steady-state kinetics
B1: putA G1011P (Rhodobacter capsulatus, UniProt D5AN87); chain MTDLSALGPKAKFAPEAEVLQALVAQAALPQPQLDRIAARGADLVARIRAEAKPSLMEHFLAQYGLSTREGVALMCLAEAMLRVPDTATIDALIEDKIAPSDWGKHLGTAASSLVNASTWALMLTGKVLDDGAGGIAGTLRGAMRRLGEPVIRAAVGQAMREMGRQFVLGETIEKALERAEKREAEGYTFSYDMLGEAALTAADAERYRLAYAQAITAIGKAATRGSIAANPGISIKLSALHPRYEVAQEARVMAELVPVVRDLARAAARAGIALHIDAEEQDRLALSLRVMAAVIADPETAGWEGFGAVVQAYGKRAGAAIDALAAMARAAGRRINIRLVKGAYWDAEMKRAQVEGHPGFPLFTSKTGTDVAYICLAAKLFGLNDCIYPQFATHNAHTVAAVLEMAAGRPFEFQRLHGMGARLHDIVLRETGGRCRIYAPVGAHRDLLAYLVRRLLENGANSSFVNQIVNESVPPAEVAACPFAALPTARAPRGLLAPADLFGAGRVNAQGFDLSDPEVLARIEAARDVTLPDAAPIVAGPVSGTLRPVRNPATGAVVAQVTEADAATVALALDAAQVWSAPAATRAAVLCRAADLYEENFGPIFAALAQEAGKTLGDAVSELREAVDFLRYYAAEGAADTRPPRGAVVAISPWNFPLAIFTGQVAAALMAGNAVLAKPAEQTPIIAALAVRLLHQAGVPETALQLLPGDGPTVGAALTRDPRVAGVVFTGSTETAQIIARAMAAHLAPGTPLIAETGGLNAMVVDSTALPEQAVRDVVASAFRSAGQRCSALRCLYVQDDIAPHLIGMLKGAMEELVSGDPARLSTDVGPVIDAEAKAGIETYLAANKARILHRSTAPEGGHFVAPALLQVGGIADLEREIFGPVLHLATFAAEDLPAVIAAINARGYGLTFGLHSRIDARVETVAETIRAGNIYVNRNQIGAVVGSQPFGGEGLSGTGPKAGGPLYLNRFYAPEPVVAVGGWTEAATPILPEARETQLDEIFLPGPTPELNRLTRHQRGPILCLGPGAEAASAQAAAVVALGGQAVQASGAVSPKALETLTPLAGVLWWGAAEMGRAYAQALAVRPGPLVPLITAKPDLAHVAHERHLCVDTTAAGGNAALLAG
B2: alanine racemase H166A (Geobacillus stearothermophilus, UniProt P10724); chain MNDFHRDTWAEVDLDAIYDNVENLRRLLPDDTHIMAVVKANAYGHGDVQVARTALEAGASRLAVAFLDEALALREKGIEAPILVLGASRPADAALAAQQRIALTVFRSDWLEEASALYSGPFPIHFHLKMDTGMGRLGVKDEEETKRIVALIERHPHFVLEGLYTAFATADEVNTDYFSYQYTRFLHMLEWLPSRPPLVHCANSAASLRFPDRTFNMVRFGIAMYGLAPSPGIKPLLPYPLKEAFSLHSRLVHVKKLQPGEKVSYGATYTAQTEEWIGTIPIGYADGWLRRLQHFHVLVDGQKAPIVGRICMDQCMIRLPGPLPVGTKVTLIGRQGDEVISIDDVARHLETINYEVPCTISYRVPRIFFRHKRIMEVRNAIGRGESSA
B3: hdhb (Clostridium sardiniense, UniProt G9FRD6); chain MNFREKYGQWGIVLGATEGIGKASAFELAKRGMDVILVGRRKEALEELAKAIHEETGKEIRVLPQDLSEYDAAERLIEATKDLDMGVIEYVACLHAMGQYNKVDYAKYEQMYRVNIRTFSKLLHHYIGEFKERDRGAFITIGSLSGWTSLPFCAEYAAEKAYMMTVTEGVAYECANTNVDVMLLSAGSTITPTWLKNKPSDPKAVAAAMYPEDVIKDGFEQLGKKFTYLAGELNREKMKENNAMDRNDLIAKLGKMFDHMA
B4: tsaM1 F253S/H255G/M230N/R216A/S234V/S257H/T232I/Y220I (Comamonas testosteroni, UniProt P94679); chain MFIRNCWYVAAWDTEIPAEGLFHRTLLNEPVLLYRDTQGRVVALENRCCHRSAPLHIGRQEGDCVRCLYHGLKFNPSGACVEIPGQEQIPPKTCIKSYPVVERNRLVWIWMGDPARANPDDIVDYFWHDSPEWRMKPGYIHYQANYKLIVDNLLDFTHLAWVHPTTLGTDSAASLKPVIERDTTGTGKLTITRWYLNDDMSNLHKGVAKFEGKADAWQIIQWSPPALLRNDIGVAPTGTGAPEGRRVPEAVQSRGTHIQTPETETTSHYWFCQARNFDLDDEALTEKIYQGVVVAFEEDRTMIEAHEKILSQVPDRPMVPIAADAGLNQGRWLLDRLLKAENGGTAP
B5: protein Y93A (Thermus thermophilus, UniProt Q5SKR5); chain MSAPKPFVIGIAGGTASGKTTLAQALARTLGERVALLPMDHYYKDLGHLPLEERLRVNYDHPDAFDLALYLEHAQALLRGLPVEMPVYDFRAATRSPRRTPVRPAPVVILEGILVLYPKELRDLMDLKVFVDADADERFIRRLKRDVLERGRSLEGVVAQYLEQVKPMHLHFVEPTKRYADVIVPRGGQNPVALEMLAAKALARLARMGAA
B6: TylM1 (Streptomyces fradiae, UniProt P95748); chain MAHSSATAGPQADYSGEIAELYDLVHQGKGKDYHREAADLAALVRRHSPKAASLLDVACGTGMHLRHLADSFGTVEGLELSADMLAIARRRNPDAVLHHGDMRDFSLGRRFSAVTCMFSSIGHLAGQAELDAALERFAAHVLPDGVVVVEPWWFPENFTPGYVAAGTVEAGGTTVTRVSHSSREGEATRIEVHYLVAGPDRGITHHEESHRITLFTREQYERAFTAAGLSVEFMPGGPSGRGLFTGLPGAKGETR
B7: sacB (Priestia megaterium, UniProt D5DC07); chain KGNDSKDFNNSYGISHITRDNMVKIPQQQNSDQFKVPAFDESTIKNIASAKGKNASGNTIDLDVWDSWPLQNADGTVATYHGYQIVFALAGDPKDSNDTSVYLFYKKAGDKSIDSWKNAGRVFKDSDKFVPNDPHLKNQTQEWSGSGTLTKDGKVRLFYTDYSGKQYGKQTLTTAQVNMSQPNDNTLKVDGVEDYKSIFDGDGKIYQTVQQFIDEGGYDTGDNHTLRDPHYIEDNGHKYLVFEANTGTEDGYQGEDSLYNRAYYGGNNPFFQSEKKKLLEGSNKEKASLANGALGIIELNDDYTLKKVMKPLITSNTVTDEIERANIFKKDGKWYLFTDSRGSKMTIDGIGQDDVYMLGYVSNTLTGKYKPLNDTGLVLHMDLDPNDKTFTYSHFAVPQTKGDNVVITSYMTNRGFYEDNHSTFAPSFLVNIDGSKTSVVKDRVLEQGQLTVDED
B8: protein G95D/P94L (Streptomyces coelicolor, UniProt P16544); chain MATQDSEVALVTGATSGIGLEIARRLGKEGLRVFVCARGEEGLRTTLKELREAGVEADGRTCDVRSVPEIEALVAAVVERYGPVDVLVNNAGRLDGGATAELADELWLDVVETNLTGVFRVTKQVLKAGGMLERGTGRIVNIASTGGKQGVVHAAPYSASKHGVVGFTKALGLELARTGITVNAVCPGFVETPMAASVREHYSDIWEVSTEEAFDRITARVPIGRYVQPSEVAEMVAYLIGPGAAAVTAQALNVCGGLGNY
B9: enzyme A178R/D177A/M179H/P184R (Levilactobacillus brevis, UniProt Q03Q85); chain MKVTVVGCTHAGTFAIKQILAEHPDAEVTVYERNDVISFLSCGIALYLGGKVADPQGLFYSSPEELQKLGANVQMNHNVLAIDPDQKTVTVEDLTNHAQTTESYDKLVMTSGSWPIVPKIPGIDSDRVKLCKNWAHAQALIEDAKEAKRITVIGAGYIGAELAEAYSTTGHDVTLIARHARVMRKYFDADFTDVIEQDYRDHGVQLALGETVESFTDSATGLTIKTDKNSYETDLAILCIGFRPNTDLLKGKVDMAPNGAIITDDYMRSSNPDIFAAGDSAAVHYNPTHQNAYIPLATNAVRQGILVGKNLVKPTVKYMGTQSSSGLALYDRTIVSTGLTLAAAKQQGLNAEQVIVEDNYRPEFMPSTEPVLMSLVFDPDTHRILGGALMSKYDVSQSANTLSVCIQNENTIDDLAMVDMLFQPNFDRPFNYLNILAQAAQAKVAQSVNA
B10: oxdC T165V (Bacillus subtilis, UniProt O34714); chain MKKQNDIPQPIRGDKGATVKIPRNIERDRQNPDMLVPPETDHGTVSNMKFSFSDTHNRLEKGGYAREVTVRELPISENLASVNMRLKPGAIRELHWHKEAEWAYMIYGSARVTIVDEKGRSFIDDVGEGDLWYFPSGLPHSIQALEEGAEFLLVFDDGSFSENSVFQLTDWLAHTPKEVIAANFGVTKEEISNLPGKEKYIFENQLPGSLKDDIVEGPNGEVPYPFTYRLLEQEPIESEGGKVYIADSTNFKVSKTIASALVTVEPGAMRELHWHPNTHEWQYYISGKARMTVFASDGHARTFNYQAGDVGYVPFAMGHYVENIGDEPLVFLEIFKDDHYADVSLNQWLAMLPETFVQAHLDLGKDFTDVLSKEKHPVVKKKCSK
B11: enzyme (Vitis vinifera, UniProt F6H697); chain MAVDPILSSPLGPAASEKDAKALQFIEEMTRNADSVQERVLAEILSRNGETEYLKRFKLEGSTVRETFKSKIPVIKYEDLQPEIQRIANGDRSAILSAHPISEFLTSSGTSAGERKLMPTIQEELDRRQMLYSLLMPVMNLYVPGLDKGKGLYFLFVKSETRTPGGLLARPVLTSYYKSEHFKTRPYDPYNVYTSPNEAILCADSFQSMYTQMLCGIYERKQVLRLGAVFASGLLRAIRFLQLNWHQLTHDIRTGTLSPKITDPSVRNCVAGVLKPDPELADLVAGECSKDNWEGIITRIWPNTKYLDVIVTGAMAQYIPTLDYYSGGLPLACTMYASSECYFGLNLNPMSKPSEVSYTIMPNMAYFEFLPHEHSSIPLSRDSPPRLVDLAHVEVGKEYELVITTYAGLYRYRVGDILRVTGFHNSAPQFHFVRRKNVLLSIDSDKTDEAELQKAVDNASKLLREVNTSVVEYTSFADTKTIPGHYVIYWELLVKDSANSPSDELLGQCCLAMEESLNSVYRQGRVADNSIGPLEIRVVKSGTFEELMDYAISRGASINQYKVPRCVNFTPIMELLDSRVVSSHFSPALPHWTPARRR
B12: protein (UniProt A0A4Y6I1F8); chain MGSEVVSKKHEFGALEVEGIDFRASVAALGSTKKLVLGGAGFRGLEINGNLVKFTAIGIYVEEAIIPHLSPKLGGKTVEELCANELLFEEVLSAPFDKLIRVVFLLPLTGPQYSEKVVERIGLLPNPGLKEESIKQFLEIFKAENFPPRTSLVCSFTEDGLKIAFMKGPDFPEESDAVIEDKYFARAFLATIIAKDGVSPMAKLSFAERVSKYL

Substance	substrate	pH	temperature	setting	added	kcat/Km [M⁻¹ s⁻¹]
alanine aminopeptidase (Neisseria meningitidis, UniProt Q9JYV4)	NC(=O)Cc1cc(=O)oc2cc(NC(=O)[C@@H](N)C3Cc4ccccc4C3)ccc12	pH 7.5	37 °C			35000 ± 2000
B1 (putA G1011P)	O=C(O)[C@@H]1CCCN1	pH 8	23 °C			2200 ± 840
BaiA2 (Clostridium scindens, UniProt P19337)	C[C@H](CCC(=O)SCCNC(=O)CCNC(=O)[C@H](O)C(C)(C)COP(=O)(O)OP(=O)(O)OC[C@H]1O[C@@H](n2cnc3c(N)ncnc32)[C@H](O)[C@@H]1OP(=O)(O)O)[C@H]1CC[C@H]2[C@@H]3CC[C@@H]4C[C@H](O)CC[C@]4(C)[C@H]3CC[C@]12C	pH 8.7	37 °C		NAD+	10200
enzyme (Thermobifida fusca, UniProt Q47RK4)	CC(C)(COP(=O)(O)OP(=O)(O)OC[C@H]1O[C@@H](n2cnc3c(N)ncnc32)[C@H](O)[C@@H]1OP(=O)(O)O)[C@@H](O)C(=O)NCCC(=O)NCCSC(=O)CCC(=O)O	pH 7.4	37 °C			2.5
B2 (alanine racemase H166A)	C[C@@H](N)C(=O)O	pH 9	room temperature		NAD+ 10 mM	2200
B3 (hdhb)	NC(=O)c1ccc[n+]([C@@H]2O[C@H](COP(=O)(O)OP(=O)(O)OC[C@H]3O[C@@H](n4cnc5c(N)ncnc54)[C@H](O)[C@@H]3O)[C@@H](O)[C@H]2O)c1	pH 8	25 °C	cofactor varied		9
B4	COc1cc(C(=O)O)ccc1O			apparent	NADH 1 mM	3200 ± 260
enzyme (Pseudomonas aeruginosa, UniProt Q9HXU0)	Nc1ncnc2c1ncn2[C@@H]1O[C@H](COP(=O)(O)OP(=O)(O)OP(=O)(O)O)[C@@H](O)[C@H]1O	pH 7.5	37 °C	apparent		36000
protein (Actinidia deliciosa, UniProt C7SHN9)	CC(C)=CCC/C(C)=C/COP(=O)(O)OP(=O)(O)O	pH 7.5			GPP 1-100 µM	11000 ± 700
B5 (protein Y93A)	Nc1ccn([C@@H]2O[C@H](CO)[C@@H](O)[C@H]2O)c(=O)n1	pH 7.2	25 °C	KCl 100 mM	ATP 100–200 µM	12000
B6 (TylM1)	Cc1cn([C@H]2C[C@H](O)[C@@H](COP(=O)(O)OP(=O)(O)O[C@H]3O[C@H](C)[C@@H](O)[C@H](N)[C@H]3O)O2)c(=O)[nH]c1=O		25 °C		SAM	3800 ± 300
B7 (sacB)	OC[C@H]1O[C@@](CO)(O[C@H]2O[C@H](CO)[C@@H](O)[C@H](O)[C@H]2O)[C@@H](O)[C@@H]1O	pH 6.6				18300
B8 (protein G95D/P94L)	O[C@H]1CCCc2ccccc21	pH 7.4		phosphate 400 mM, NADPH 250 µM printed	NADP+, reverse reaction	32 ± 1
protein (Sinorhizobium meliloti, UniProt Q92LZ4)	NC(=O)C1=CN([C@@H]2O[C@H](COP(=O)(O)OP(=O)(O)OC[C@H]3O[C@@H](n4cnc5c(N)ncnc54)[C@H](OP(=O)(O)O)[C@@H]3O)[C@@H](O)[C@H]2O)C=CC1	pH 7.5	25 °C	NaCl 150 mM, cofactor varied	hydroxypyruvate 66.7 mM	773000 ± 154000
B9 (enzyme A178R/D177A/M179H/P184R)	NC(=O)C1=CN([C@@H]2O[C@H](COP(=O)(O)OP(=O)(O)OC[C@H]3O[C@@H](n4cnc5c(N)ncnc54)[C@H](O)[C@@H]3O)[C@@H](O)[C@H]2O)C=CC1	pH 7.5	37 °C	per site		110000 ± 20000
B10 (oxdC T165V)	O=C(O)C(=O)O	pH 4.2	25 °C			70
B11 (enzyme)	O=C(O)Cc1c[nH]c2ccccc12	pH 8.6	25 °C			22800
B12 (protein)	O=C(/C=C/c1ccc(O)cc1)c1c(O)cc(O)cc1O					1.57e+06

A few entries again:
Substance	substrate	pH	temperature	setting	added	kcat/Km [M⁻¹ s⁻¹]
B7 (sacB)	OC[C@H]1O[C@@](CO)(O[C@H]2O[C@H](CO)[C@@H](O)[C@H](O)[C@H]2O)[C@@H](O)[C@@H]1O	pH 6.6				18300
